Experimental data collected from several papers.
Sequence of UniProt O75716 (whole entry, looked up): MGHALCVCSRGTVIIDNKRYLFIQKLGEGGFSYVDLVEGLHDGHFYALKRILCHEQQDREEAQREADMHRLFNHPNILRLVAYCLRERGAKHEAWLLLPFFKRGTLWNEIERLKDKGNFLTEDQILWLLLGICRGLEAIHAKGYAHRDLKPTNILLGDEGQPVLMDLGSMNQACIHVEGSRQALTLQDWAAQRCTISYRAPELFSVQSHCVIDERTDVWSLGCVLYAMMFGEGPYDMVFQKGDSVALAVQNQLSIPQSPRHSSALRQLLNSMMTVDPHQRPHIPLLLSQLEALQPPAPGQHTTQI
Sequence of UniProt O00750 (whole entry, looked up): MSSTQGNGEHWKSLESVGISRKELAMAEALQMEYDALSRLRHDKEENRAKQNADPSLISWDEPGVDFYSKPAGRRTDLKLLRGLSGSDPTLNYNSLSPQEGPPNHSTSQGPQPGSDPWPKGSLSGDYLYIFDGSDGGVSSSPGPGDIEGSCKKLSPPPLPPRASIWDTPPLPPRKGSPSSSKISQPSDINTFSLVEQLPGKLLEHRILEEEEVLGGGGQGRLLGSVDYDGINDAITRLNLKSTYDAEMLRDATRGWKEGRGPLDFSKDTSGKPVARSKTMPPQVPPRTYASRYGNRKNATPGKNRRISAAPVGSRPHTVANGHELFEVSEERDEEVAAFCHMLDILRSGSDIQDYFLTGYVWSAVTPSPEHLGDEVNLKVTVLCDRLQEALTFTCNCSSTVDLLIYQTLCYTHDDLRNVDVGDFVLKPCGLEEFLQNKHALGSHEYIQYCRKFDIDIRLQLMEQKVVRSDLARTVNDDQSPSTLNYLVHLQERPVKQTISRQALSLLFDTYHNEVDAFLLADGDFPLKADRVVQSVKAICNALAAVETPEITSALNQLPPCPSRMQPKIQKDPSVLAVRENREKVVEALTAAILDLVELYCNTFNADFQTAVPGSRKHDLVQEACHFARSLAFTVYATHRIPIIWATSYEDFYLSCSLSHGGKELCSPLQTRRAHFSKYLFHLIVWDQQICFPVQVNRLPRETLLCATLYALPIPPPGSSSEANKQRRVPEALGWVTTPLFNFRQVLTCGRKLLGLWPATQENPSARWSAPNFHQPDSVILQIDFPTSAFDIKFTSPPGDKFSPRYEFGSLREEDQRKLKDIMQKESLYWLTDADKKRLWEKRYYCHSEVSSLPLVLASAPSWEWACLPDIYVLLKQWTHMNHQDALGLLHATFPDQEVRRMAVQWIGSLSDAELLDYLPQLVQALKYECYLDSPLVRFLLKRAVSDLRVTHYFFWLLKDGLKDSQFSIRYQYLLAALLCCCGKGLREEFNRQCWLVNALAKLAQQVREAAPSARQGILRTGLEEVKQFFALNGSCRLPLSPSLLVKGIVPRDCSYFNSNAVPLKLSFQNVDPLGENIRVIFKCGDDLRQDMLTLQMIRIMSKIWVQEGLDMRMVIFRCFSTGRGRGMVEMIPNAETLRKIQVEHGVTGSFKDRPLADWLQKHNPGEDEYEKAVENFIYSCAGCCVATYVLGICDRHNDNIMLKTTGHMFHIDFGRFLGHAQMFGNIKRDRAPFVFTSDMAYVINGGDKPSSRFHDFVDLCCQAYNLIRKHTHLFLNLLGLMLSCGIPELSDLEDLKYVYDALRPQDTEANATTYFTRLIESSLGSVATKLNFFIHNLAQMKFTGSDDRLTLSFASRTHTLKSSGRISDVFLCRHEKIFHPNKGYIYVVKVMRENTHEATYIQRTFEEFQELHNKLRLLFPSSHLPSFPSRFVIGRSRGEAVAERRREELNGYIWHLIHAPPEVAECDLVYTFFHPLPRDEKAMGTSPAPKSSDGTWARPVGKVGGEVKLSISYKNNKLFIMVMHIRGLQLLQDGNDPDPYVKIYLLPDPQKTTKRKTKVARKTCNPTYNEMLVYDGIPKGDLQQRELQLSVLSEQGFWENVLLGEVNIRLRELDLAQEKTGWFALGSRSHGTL

With `CCc1c(C)c2ccc(OCc3nnc(S)n3N)c(C)c2oc1=O` the viability was 3.26% (PC-3; cell growth or viability, MTT; 1000 µg/mL).
For `O=C(C=Cc1ccccc1)Nc1ccc(Oc2nnc(-c3ccc(Cl)cc3)c3ccccc23)cc1`, the viability was 8.15% (MCF7; cell growth or viability, MTT; 10 µM, 24 h).
With `COc1ccc(CNC[C@@](C)(O)[C@@H]2CC[C@@H](C)C[C@H]2OCc2ccccc2)cc1` the inhibition was 75.8% (HeLa; cell growth or viability, MTT; 10 µM, 72 h).
`O=C(Nc1ccc(Oc2nnc(-c3ccc(Cl)cc3)c3ccccc23)cc1)c1cccc([N+](=O)[O-])c1` has a viability of 7.92% (MCF7; cell growth or viability, MTT; 5 µM, 24 h).
`C=CC(=O)N1CCC(COCC(=O)N2CCN(c3nc(-c4cnc(N)nc4C(F)F)nc(N4CCOC[C@@H]4C)n3)CC2)CC1` gave a remaining binding of 46% (PIK3C2B (Homo sapiens, UniProt O00750); binding, competition with immobilised ligand; 1 µM).
`CCOc1ccc2c(C)c(CC)c(=O)oc2c1C` has a viability of 8.76% (PC-3; cell growth or viability, MTT; 250 µg/mL).
The EC50 of `CNc1ncc2c(/C=C/C(=O)N3CCC(OC)CC3)nn(Cc3cccc(C(F)(F)F)c3)c2n1` is reported as 1.01 µM (FLO-1; cell growth or viability, resazurin; 5 days).
For `S=C(Nc1ccccc1)Nc1ccc(Oc2nnc(-c3ccc(Cl)cc3)c3ccccc23)cc1`, the cell death was 0% (MCF7; cell growth or viability, MTT; 0.312 µM).
For `OCc1ccc(-c2nn(Cc3ccc(Cl)cc3)c3ccccc23)o1`, the inhibition was 70% (RBE; cell growth or viability, ATP luminescence; 46 µM, 72 h).
For `COc1cc2nccc(Oc3ccc(NC(=O)C4(C(=O)Nc5ccc(F)cc5)CC4)cc3)c2cc1OC`, the IC50 was over 10 µM (MB002; cell growth or viability; 7 days).
For `CC(=NNC(=O)c1cccnc1)c1ccc(Nc2nnc(-c3ccc(Cl)cc3)c3ccccc23)cc1`, the viability was 49.4% (MCF7; cell growth or viability, MTT; 0.625 µM, 24 h).
With `CCN(CC)c1nc(N)c2c(N)nc3c(c2c1C#N)C(=O)CN3Cc1ccccc1` the IC50 was over 10 µM (HEK293; cell growth or viability).
With `C[C@@H]1CC[C@@H]([C@](O)(CNCc2ccc(F)cc2)COCc2ccc(F)cc2)[C@H](OCc2ccc(F)cc2)C1` the inhibition was 93.7% (HeLa; cell growth or viability, MTT; 10 µM, 72 h).
With `OC1(c2ccc(-c3nn(Cc4ccccc4)c4ccccc34)o2)CC1` the inhibition was 42% (RBE; cell growth or viability, ATP luminescence; 46 µM, 72 h).
With `CC(=NNC(=O)c1ccc(N)cc1)c1ccc(Nc2nnc(-c3ccc(Cl)cc3)c3ccccc23)cc1` the viability was 5.36% (MCF7; cell growth or viability, MTT; 2.5 µM, 24 h).
With `CC(=NNC(=O)COc1ccc2c(C)c(Cc3ccccc3)c(=O)oc2c1C)c1ccc(Br)cc1` the viability was 12.5% (PC-3; cell growth or viability, MTT; 62.5 µg/mL).
`CC(=NNC(=O)c1ccncc1)c1ccc(Nc2nnc(-c3ccc(Cl)cc3)c3ccccc23)cc1` gave a cell death of 95.5% (MCF7; cell growth or viability, MTT; 0.625 µM).
`Cc1cc(=O)c(-c2ccc(Oc3cccc(C(F)(F)F)c3)cc2)c(C)[nH]1` gave an IC50 of over 10 µM (HEK293; cell growth or viability).
`Cc1ccc(C(CS(=O)(=O)c2ccccc2)=NNC2=NC(=O)C(=NNc3ccc([N+](=O)[O-])cc3)S2)cc1` gave a viability of 27.4% (WM 266-4; cell growth or viability, MTT; 100 µM, 48 h).
With `CC(=NNC(N)=S)c1ccc(Nc2nnc(-c3ccc(Cl)cc3)c3ccccc23)cc1` the cell death was 95.4% (MCF7; cell growth or viability, MTT; 0.625 µM).
`COc1cc(-c2cncc3c2CN(C)Cc2cc(N4CCNCC4)ccc2-3)cc(OC)c1OC` has a remaining activity of 108% (STK16 (Homo sapiens, UniProt O75716); enzyme activity, inhibitor; 1 µM).
With `CCC(=CCc1c(O)cc2c(c1O)C(=O)C[C@H](c1ccccc1O)O2)CC` the inhibition was 5.94% (HeLa; cell growth or viability, MTT; 7.5 µM, 48 h).
`CNc1ncc2c(/C=C/C(=O)N3CCOCC3)nn(CC3CCCC3)c2n1` gave an EC50 of over 30 µM (FLO-1; cell growth or viability, resazurin; 5 days).
For `COc1ccc(-c2cc(-c3ccc(S(C)(=O)=O)cc3)cnc2N)cn1`, the IC50 was over 10 µM (HEK293; cell growth or viability).
With `CCc1c(C)c2ccc(OCC=Cc3ccccc3)c(C)c2oc1=O` the viability was 52% (PC-3; cell growth or viability, MTT; 62.5 µg/mL).
`O=C(Nc1ccc(Oc2nnc(-c3ccc(Cl)cc3)c3ccccc23)cc1)c1ccccc1` has a cell death of 13.5% (MCF7; cell growth or viability, MTT; 78 nM).
The GI50 of `CN(C)CCNC(=O)c1ccc(-c2nc3ccc4[nH]ncc4c3c3c2CCCCC3)c(F)c1` is reported as 0.283 µM (ML-2; cell growth or viability; 72 h).

A few entries again:
For `OCc1ccc(-c2nn(Cc3ccc(Cl)cc3)c3ccccc23)o1`, the inhibition was 70% (RBE; cell growth or viability, ATP luminescence; 46 µM, 72 h).
For `COc1cc2nccc(Oc3ccc(NC(=O)C4(C(=O)Nc5ccc(F)cc5)CC4)cc3)c2cc1OC`, the IC50 was over 10 µM (MB002; cell growth or viability; 7 days).
For `CC(=NNC(=O)c1cccnc1)c1ccc(Nc2nnc(-c3ccc(Cl)cc3)c3ccccc23)cc1`, the viability was 49.4% (MCF7; cell growth or viability, MTT; 0.625 µM, 24 h).
With `CCN(CC)c1nc(N)c2c(N)nc3c(c2c1C#N)C(=O)CN3Cc1ccccc1` the IC50 was over 10 µM (HEK293; cell growth or viability).
